# Published values collected from several papers.
# A part holds a random share of what one study measured.

# Block 1 — technique: protein-binding microarray; molecule type: double-stranded DNA, one strand shown; sample: in vitro; concentration: 0.8 µM; setting: whole 60-bp probe, no competitor; direction: higher = stronger binding
# Target: Centromere-binding protein 1, full length, N-terminal tag (CBF1, Saccharomyces cerevisiae, UniProt P17106, residues 1-351)
# Sequence of UniProt P17106 (whole entry, looked up): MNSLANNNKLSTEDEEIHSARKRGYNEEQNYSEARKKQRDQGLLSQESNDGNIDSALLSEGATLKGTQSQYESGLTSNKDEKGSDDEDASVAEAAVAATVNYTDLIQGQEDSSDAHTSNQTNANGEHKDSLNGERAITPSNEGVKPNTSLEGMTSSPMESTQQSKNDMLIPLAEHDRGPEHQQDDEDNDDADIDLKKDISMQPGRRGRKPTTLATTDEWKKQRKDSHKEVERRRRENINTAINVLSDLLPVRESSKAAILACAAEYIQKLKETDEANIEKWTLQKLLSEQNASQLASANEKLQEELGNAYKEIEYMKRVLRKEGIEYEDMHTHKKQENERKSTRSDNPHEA
Strand,fluorescence intensity [a.u.]
CTAAAGTTACCGTGTCACCTTCACAGTTTTCTTTTCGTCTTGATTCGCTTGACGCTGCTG,538
CTATGAGACATTTCTGATGTACTTCCACTTCCTTTCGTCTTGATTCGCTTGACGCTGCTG,474
GAAGAATCACTTTAAAACGTGGCCCCACCCGCTTAGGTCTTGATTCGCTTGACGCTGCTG,569
GAAAACTTAAAAGGACACGTTTGAACTCATAATTAGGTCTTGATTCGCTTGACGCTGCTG,539
CTATTTTGTATGGAAACCGTGATGAGAAATCCGTTCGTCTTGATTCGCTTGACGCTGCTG,921
CTACGATAGTATGCCCCCGTGATCTTAGTTATTTTCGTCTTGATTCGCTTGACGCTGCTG,2420
GAATCAGATCGCATTCATCTGATTTCTTACTGATAGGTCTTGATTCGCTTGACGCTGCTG,494
GAAGTAAGCCTCGAGGTCACGAGGATATTATTTTAGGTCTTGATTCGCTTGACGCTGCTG,3430
GAATGCAGTCGCAAGCACGTGCATGCGATTTTGTAGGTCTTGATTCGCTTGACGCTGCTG,13100
CTAATGTCTGCATACGTGATTACTACATATATATTCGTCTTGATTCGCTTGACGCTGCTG,628
CCTAACTACTATAGCTGCGTGGCATAGCTTCGTACAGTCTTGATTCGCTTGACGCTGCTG,489
CTACCAAAAAAAGGTGACGAAAGCTCCAATTTATTCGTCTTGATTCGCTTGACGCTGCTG,524
GAAAAGCCACGCCATGTGATTAACCTTGCTTGATAGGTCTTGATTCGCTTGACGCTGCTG,2280
GAATATCTTTTTATGCACATGTAATTCTTCCCATAGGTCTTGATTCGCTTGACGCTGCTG,650
GAAAAATGAAGAAACCAGGTGAAGAGATCCTTTTAGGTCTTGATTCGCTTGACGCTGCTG,504
CTAATGTGTCATCCGCGGGTGAGGTAAACGCTGTTCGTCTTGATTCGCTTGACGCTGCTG,481
TGTACGAAGCTATACGTGGTCTCTATAGTAGTTAGGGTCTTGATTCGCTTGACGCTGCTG,502
GAATGTTTATTATACCACGTTAAAAATCATTTCTAGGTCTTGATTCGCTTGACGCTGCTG,593
CCTAACTACTATATACACGTCAGATAGCTTCGTACAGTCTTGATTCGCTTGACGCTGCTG,520
TGTACGAAGCTATATCACGTGCATATAGTAGTTAGGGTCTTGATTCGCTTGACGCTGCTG,19200
CTAACCAAGCAAGAACACGTCACCGCATTAATATTCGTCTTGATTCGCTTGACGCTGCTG,537
GAACGATGTGATTGTGATGTTATGTCTCTGGACTAGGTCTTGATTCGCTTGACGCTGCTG,533

# Block 2 — technique: universal PBM; molecule type: double-stranded DNA, one strand shown; sample: in vitro; concentration: 600 nM; direction: higher = stronger binding
# Target: Sal-like protein 4, full length isoform A (SALL4, Homo sapiens, UniProt Q9UJQ4, residues 1-1053)
# Sequence of UniProt Q9UJQ4 (whole entry, looked up): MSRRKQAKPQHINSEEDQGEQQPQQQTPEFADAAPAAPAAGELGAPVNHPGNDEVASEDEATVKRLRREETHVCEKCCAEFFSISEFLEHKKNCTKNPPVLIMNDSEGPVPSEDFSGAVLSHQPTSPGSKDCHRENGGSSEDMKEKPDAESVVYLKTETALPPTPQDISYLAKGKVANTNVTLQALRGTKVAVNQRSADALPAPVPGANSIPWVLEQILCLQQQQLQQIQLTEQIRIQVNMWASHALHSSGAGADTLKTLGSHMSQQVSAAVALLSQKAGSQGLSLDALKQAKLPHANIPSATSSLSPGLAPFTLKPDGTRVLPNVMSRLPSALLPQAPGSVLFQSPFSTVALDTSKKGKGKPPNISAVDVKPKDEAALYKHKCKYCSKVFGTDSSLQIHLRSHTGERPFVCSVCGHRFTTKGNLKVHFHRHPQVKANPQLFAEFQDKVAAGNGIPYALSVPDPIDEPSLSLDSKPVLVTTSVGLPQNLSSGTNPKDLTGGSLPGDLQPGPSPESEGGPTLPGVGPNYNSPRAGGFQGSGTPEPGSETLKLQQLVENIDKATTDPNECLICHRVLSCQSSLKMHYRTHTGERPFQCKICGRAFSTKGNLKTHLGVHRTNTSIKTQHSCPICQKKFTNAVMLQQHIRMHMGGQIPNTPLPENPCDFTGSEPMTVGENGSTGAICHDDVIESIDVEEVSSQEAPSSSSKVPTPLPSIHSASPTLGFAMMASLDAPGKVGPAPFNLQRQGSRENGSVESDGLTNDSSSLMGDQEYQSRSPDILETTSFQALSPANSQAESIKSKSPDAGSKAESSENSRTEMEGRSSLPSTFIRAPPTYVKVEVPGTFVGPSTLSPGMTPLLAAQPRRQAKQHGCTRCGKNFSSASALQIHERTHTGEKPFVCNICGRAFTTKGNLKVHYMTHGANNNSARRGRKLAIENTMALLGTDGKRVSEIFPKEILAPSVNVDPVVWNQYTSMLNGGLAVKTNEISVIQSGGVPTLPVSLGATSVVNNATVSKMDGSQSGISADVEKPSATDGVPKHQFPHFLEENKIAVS
# Setting: 8-mer, flanks averaged, mean of replicates
Strand,E-score
GAGAGACA,-0.109
ATGGTAAT,0.345
GGGTTGTA,0.0167
AAGTGGAG,0.118
CGAGGTTA,-0.00802
CGGCTCAG,-0.25
AGGCGGTC,-0.189
CCTGGAGC,-0.189
GCTTCCCA,-0.108
GCCAACGC,-0.246
ACATTGGC,0.0114
CGTCGAAA,0.00144
ACCGTCCT,0.0321
CCTAGGGA,-0.0898

# Block 3 — technique: protein binding microarray; molecule type: double-stranded DNA, one strand shown; sample: in vitro; concentration: not given; baseline: not given; direction: higher = stronger binding
# Target: Histone acetyltransferase KAT6A, winged helix 1, GST fusion (KAT6A, Homo sapiens, UniProt Q92794, residues 1-85)
# Setting: 8-mer, flanks averaged, mean of 2 arrays, mostly near background
# Residues (chain): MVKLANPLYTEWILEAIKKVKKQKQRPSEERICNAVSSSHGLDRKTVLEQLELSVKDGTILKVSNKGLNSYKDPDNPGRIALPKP
Strand,E-score
ACCGCAAC,0.111
ACTTGACA,-0.226
AGGTAACG,-0.0299
ACAGTCGA,-0.207
AGGCCGAC,0.202
CAGTAAAC,0.0268
CAGCGCAG,0.306
AGGTCTAT,-0.146
TATCGAGA,-0.243
AATTTAGG,-0.195
AAGCCTCT,-0.208
TAGAGACA,-0.232
CTCTTGGC,-0.0635

# Block 4 — technique: protein-binding microarray; molecule type: double-stranded DNA, one strand shown; sample: in vitro; concentration: 2540 nM top; setting: 60-bp whole probe; with: salmon DNA 0.4 mg/ml; baseline: random background probes; direction: higher = stronger binding; all sequences stand within: GCCTAGCAC … GTCTTGATTCGCTTGACGCTGCTG
# Target: Interferon regulatory factor 3, full length, phosphomimetic (IRF3, Homo sapiens, UniProt Q14653, residues 1-427, S386D/S396D/S398D/S402D/T404D/S405D)
# Target sequence (chain): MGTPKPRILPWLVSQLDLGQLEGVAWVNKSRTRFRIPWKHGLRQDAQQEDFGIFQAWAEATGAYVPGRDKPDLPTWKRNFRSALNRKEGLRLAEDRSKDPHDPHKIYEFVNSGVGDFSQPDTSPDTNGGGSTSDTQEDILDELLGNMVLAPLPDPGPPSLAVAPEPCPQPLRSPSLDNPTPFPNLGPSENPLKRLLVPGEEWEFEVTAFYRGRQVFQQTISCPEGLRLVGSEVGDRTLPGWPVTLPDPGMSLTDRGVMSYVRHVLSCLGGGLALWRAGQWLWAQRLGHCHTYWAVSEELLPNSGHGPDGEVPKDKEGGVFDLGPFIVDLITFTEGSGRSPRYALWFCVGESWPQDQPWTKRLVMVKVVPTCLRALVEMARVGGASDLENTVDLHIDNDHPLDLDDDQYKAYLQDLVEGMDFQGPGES
Strand,fitted relative affinity
GACGGTATCGACGCTGGGGACGTGCTA,-0.0618 z-score
GTCGGTATCGACACTGGGGACGTGCTA,1.54 z-score
ATGACCTCACTGCCTGACACGTGCTAG,-0.15 z-score
TCAGTTTCCTCTTTCACACTGTGCTAG,6.82 z-score
GACGGTATCCTTACCCTGACGTGCTAG,3.74 z-score
TTAGGTTCAGGTTTCGGTTAGTGCTAG,4.2 z-score
TTAGGTATCCAACTGCTTTAGTGCTAG,1.47 z-score
GATGGTATCCTACTGCTGACGTGCTAG,2.38 z-score
TTAGATGTCAGTATCGATTAGTGCTAG,1.38 z-score
CTTTTTTTCCGAGTGAGTAAGTGCTAG,3.31 z-score
TTAGAGTTCAGTATCGATTAGTGCTAG,1.08 z-score
GACGAGATCGGGTATCGAGACGTGCTA,0.0904 z-score
GACGATATTAGACTGGAGACGTGCTAG,-0.0684 z-score
TTCACTTTCTTTACTTCACTGTGCTAG,3.07 z-score
GACGGTATCGACTTTCAGGACGTGCTA,1.24 z-score
TTCTCTTTCACTACTCCATTGTGCTAG,2.85 z-score
TCAACTCTAATATTGAGACTGTGCTAG,0.142 z-score

# Block 5 — technique: RNA Bind-n-Seq; molecule type: RNA; sample: in vitro; concentration: 200 nM; setting: whole 134-nt RNA, ends assumed; with: 150 mM KCl; baseline: input library; direction: higher = stronger binding
# Target: Ras GTPase-activating protein-binding protein 1, full length (G3BP1, Homo sapiens, UniProt Q13283)
# Sequence of UniProt Q13283 (whole entry, looked up): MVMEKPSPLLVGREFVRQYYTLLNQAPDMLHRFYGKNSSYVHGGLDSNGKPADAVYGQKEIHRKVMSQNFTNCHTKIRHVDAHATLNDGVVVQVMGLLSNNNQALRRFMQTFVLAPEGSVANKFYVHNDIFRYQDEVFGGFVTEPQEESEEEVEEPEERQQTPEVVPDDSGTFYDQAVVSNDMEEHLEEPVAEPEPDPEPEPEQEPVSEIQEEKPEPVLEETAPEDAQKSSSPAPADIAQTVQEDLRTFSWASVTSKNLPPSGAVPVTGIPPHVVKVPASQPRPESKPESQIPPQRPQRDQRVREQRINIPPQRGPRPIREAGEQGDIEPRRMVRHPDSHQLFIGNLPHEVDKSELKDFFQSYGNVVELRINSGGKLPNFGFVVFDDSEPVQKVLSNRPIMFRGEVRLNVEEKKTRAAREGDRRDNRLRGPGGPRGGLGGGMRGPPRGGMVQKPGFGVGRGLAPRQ
Strand,log2 enrichment
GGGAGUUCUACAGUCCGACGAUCAAGUCCUGUGCUACACAUCGUAUGUACCGAAUCGGGGAAAGGGGUGGGGUUUGGGGAAAGUAUUAUGUUACGCCGUUCGGAUCUGCACUUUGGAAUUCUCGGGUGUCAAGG,0.433
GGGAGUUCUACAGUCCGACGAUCACCAUGCAGGUGAGCAUCUUUGGGAAGUGGGGCAAGGGGGGGAUAGGGAGGGGGGUAACACUUUGGGAACAGGUGGUCCCAGGUCGUUUCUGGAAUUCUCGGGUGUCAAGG,0.868
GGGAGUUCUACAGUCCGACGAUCUGGGAGGUGGAUUCUGUUUAUUUUUUUAGCUCAUUUCCAGGGGUGGGAAUUUUUUUUUAAUAUGUGUCAUGAAUAAAGUUGUUUUUGAAAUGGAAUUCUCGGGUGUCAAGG,0.0741
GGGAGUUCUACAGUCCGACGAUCCUCAAGUCCUGUGCUACACAUCGUAUGUACCGAAUCGGGGCGGGGCGGGCGGGAAAGUAUUAUGUUACGCCGUUCGGAUCUGCACUUCCAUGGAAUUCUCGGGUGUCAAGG,1.26
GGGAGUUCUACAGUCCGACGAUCUUCCCUGAAGAUGAGAUCCCAGAGAAGGCCUGCAGGCGCCUGCUUGAAGGGAGGCGGCAGAAGAAGACGAAGAAGCAGAAGCGUCUGCUCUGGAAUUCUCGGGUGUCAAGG,0.561
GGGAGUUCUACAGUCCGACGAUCAGUCCUGUGCUACACAUCGUAUGUACCGAAUCGGUUUUUGGGUUUUUGGUUUUUGGGAAAGUAUUAUGUUACGCCGUUCGGAUCUGCACUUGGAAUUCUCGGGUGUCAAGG,-1.41
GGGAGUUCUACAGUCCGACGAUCUGGCCCUGGUGGCAUGCGGGGAGGAAGAGGUGGCCUCAUGGAUCGUGGUAGUCCCGGUGGAAUGUUCAGAGGUGGCCGUGGUGGAGACAGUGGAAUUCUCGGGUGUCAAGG,0.463
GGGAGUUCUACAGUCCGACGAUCACCAUGCAGGUGGGCAUCUUUGGGAAGUGGGGCAAGGGGGGGAUAGGGAGGGGGGUAACACUUUGGGAACAGGUGGUCCCAGGUCGAUUCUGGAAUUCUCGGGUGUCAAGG,1.1
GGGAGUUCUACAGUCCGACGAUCUCCUGUGCUACACAUCGUAUGUACCGAAUCGGGGUGGGGUUUUUUUGGGGUUUUUGGGGAAAGUAUUAUGUUACGCCGUUCGGAUCUGCAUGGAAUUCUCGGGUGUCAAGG,0.653
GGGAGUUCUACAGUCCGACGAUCCUGUGCUACACAUCGUAUGUACCGAAUCGUGUGUGUGUGUGUGUGUGUGUGUGUGUGUGUGUAAAGUAUUAUGUUACGCCGUUCGGAUCUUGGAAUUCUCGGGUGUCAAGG,0.767
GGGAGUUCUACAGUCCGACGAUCUGGCCCUGGUGGCAUGCGGGGAGGAAGAGCUGGCCUCAUGGAUCGUGGUGGUCCCGGUGGAAUGUUCAGAGGUGGCCGUGGUGGAGACAGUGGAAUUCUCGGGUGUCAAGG,0.186
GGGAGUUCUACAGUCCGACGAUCAGUCCUGUGCUACACAUCGUAUGUACCGAAUCGGGGUUUUUGGGGAAAGGGGAGGGGAAAGUAUUAUGUUACGCCGUUCGGAUCUGCACUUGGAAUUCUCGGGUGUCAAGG,0.3
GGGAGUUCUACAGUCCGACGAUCCACAGACAACACGCACCCACACAGACACAGAGGGAAGGGGUAGGGAUGGGGACAGGGUGCACAGCAGGGCGGGGUAGGACCCCAGCCCCUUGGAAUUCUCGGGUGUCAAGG,1.78
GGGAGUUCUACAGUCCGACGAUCUGGGAGGUGGAUUUUGUUUAUUUUUUUAGCUCAUUUCCAGGGGUGGGAAUUUUUUUUGAAUAUGUGUCAUGAAUAAAGUUGUUUUUGAAAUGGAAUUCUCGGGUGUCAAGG,0.206

# Block 6 — technique: aptamer microarray, sandwich; molecule type: DNA with 2'F-ANA; sample: in vitro; concentration: 200 nM; with: Cy3 exosite-II aptamer, 400 nM; direction: higher = stronger binding; strand: GGTTGGTGTGGTTGG
# Target: Prothrombin, mature alpha-thrombin (F2, Homo sapiens, UniProt P00734)
# Setting: whole 15-mer aptamer, many near background
Modification,mean fluorescence intensity [a.u.]
2'F-ANA at 1 3 4 5 11 12 13 14,110
2'F-ANA at 6 8 9 11 12 13 14 15,178
2'F-ANA at 5 6 8 9 10 11 14 15,46.9
2'F-ANA at 5 6 9 11 12 13 14 15,48.7
2'F-ANA at 2 3 9 10 12 13 14 15,271
2'F-ANA at 1 2 3 9 10 11 15,69
2'F-ANA at 1 2 3 4 6 7 8 10 13 14 15,52.4
2'F-ANA at 1 2 3 8 9 15,263
2'F-ANA at 2 4 6 11 15,202
2'F-ANA at 5 9 12 14 15,49.7
2'F-ANA at 4 5 10 13,42.8
2'F-ANA at 1 3 4 6 8 9 10,129
2'F-ANA at 1 5 7 10 11 12,47.9

# Some of these lines once more (block 4):
Strand,fitted relative affinity
TCAGTTTCCTCTTTCACACTGTGCTAG,6.82 z-score
GACGGTATCCTTACCCTGACGTGCTAG,3.74 z-score
TTAGGTTCAGGTTTCGGTTAGTGCTAG,4.2 z-score
TTAGGTATCCAACTGCTTTAGTGCTAG,1.47 z-score
GATGGTATCCTACTGCTGACGTGCTAG,2.38 z-score
TTAGATGTCAGTATCGATTAGTGCTAG,1.38 z-score
CTTTTTTTCCGAGTGAGTAAGTGCTAG,3.31 z-score
TTAGAGTTCAGTATCGATTAGTGCTAG,1.08 z-score
GACGAGATCGGGTATCGAGACGTGCTA,0.0904 z-score
GACGATATTAGACTGGAGACGTGCTAG,-0.0684 z-score
TTCACTTTCTTTACTTCACTGTGCTAG,3.07 z-score
GACGGTATCGACTTTCAGGACGTGCTA,1.24 z-score
